Assay results of several laboratories.
Each line is one published result; not all experiments were run side by side. Values joined by “and” are separate records of one study, mostly repeats; a detail may differ. ± marks the error that the study gave.

COc1ncccc1-c1cnn2ccc(N3CCN(C(=O)OC(C)C)CC3)nc12  free drug concentration (rat, CCI mechanical allodynia model, plasma; oral, 1 mg/kg, 240 min): 4.4 nM
CN1CCN(S(=O)(=O)c2cc([N+](=O)[O-])ccc2N(CCOS(C)(=O)=O)CCOS(C)(=O)=O)CC1  hemoglobin (NOD/SCID mouse, naive, blood; intraperitoneal, 6.3 mg/kg, week 4): 158 g/L and 164 g/L and 160 g/L
COc1cc2c(Oc3ccc4[nH]c(C)cc4c3F)ccnc2cc1OCC1(N)CC1  Anorexia incidence (paediatric recurrent refractory sarcoma; 10 mg): 0%
COc1ccc(C[C@@H]2NC(=O)[C@H]([C@@H](C)O)NC(=O)[C@@H]3[C@@H]4CCN3C(=O)[C@@H]3Cc5cn(c6ccc(F)cc56)CCCCCCN(Cc5ccc(cc5)CCNC(=O)[C@]5(C)CCCN5C2=O)C(=O)CCC(=O)N[C@@H](C)C(=O)N[C@H](CNC(=O)CCCCC[N+](C)(C)C)C(=O)N[C@@H](Cc2cccc(c2)CNC(=O)CO4)C(=O)N3)cc1  participants with adverse event (refers to: medical device site reaction; human; dose not given): 0%
Cc1cc(NC2CCN(C(=O)OC3CCN(C(=O)/C=C/CN(C)C)C3)CC2)n2ncc(C(C)C)c2n1 (stereo not shown)  highest non-severely toxic dose (dog; oral, daily for 4 weeks): 2 mg/kg
C[C@]1(O)C[C@@](N)(c2ccc(-c3nc4n(c3-c3ccccc3)COc3ccncc3-4)cc2)C1  patients with Dyspnea TEAE (human, advanced or metastatic solid tumours; 20 mg once daily, phase I dose escalation): 16.7%
CCC[C@@](N)(CO)CCc1ccc(OCCCCCC(C)C)cc1  AUC(0-inf) (male hound dog, plasma; oral, 2.5 mg/kg, capsule, geometric mean): 1.86 µM·h
COc1ccc2c(c1)CN(C(=O)CCN1CCC(Cc3ccccc3)CC1)CC[S@@+]2[O-]  QTcF (female beagle dogs, chronic AV block; intravenous, 3 mg/kg, 1 h): 309 ± 12 ms
COc1ccc(CCC2CCCC(CCc3ccc(OC)cc3)N2C[C@@H](O)CO)cc1.Cl (stereo in doubt)  resting membrane potential change (rabbit Purkinje fibres; 0.03 µM, cycle length 0.5 s; reference: baseline): -0.9 ± 0.7 mV
CCc1ccc(CC/C=C/c2ccc3c(c2)C(=O)CC3)cc1  Reticulocyte percentage (Sprague-Dawley rat, male; oral, 120 mg/kg/day, 14 days): 5.94%
C[C@]1(CO)Cc2ncn(-c3ccc(C#N)c(Cl)c3)c2C(=O)O1  subjects with drug-related acne (human, Chinese; 20 mg single dose): 0%
CNC(=O)N(N(CCCl)S(C)(=O)=O)S(C)(=O)=O  half-life ratio (1 mM potassium phosphate; 50 °C; reference: pH 8.0 over pH 7.0): ~8 fold
CCN(CCO)CCCC(C)Nc1ccnc2cc(Cl)ccc12 (stereo not shown)  fatigue patients (newly diagnosed glioblastoma patients; oral, 400 mg/dose, grade 1, together with: radiotherapy and temozolomide): 57%
N#C/N=C1\SCCN1Cc1ccc(Cl)nc1  concentration (soil; 28 days, nominal 1.1): 0.05 mg/kg dry soil
Cc1cc(C)c(CNC(=O)c2cc(Cl)c3c(c2C)O[C@@](C)([C@H]2CC[C@H](N(C)C)CC2)O3)c(=O)[nH]1  incidence of muscle spasms (relapsed/refractory NHL patients; dose not given, trial, safety set, treatment-related TEAE grade 5): 0%
COc1ccc(-c2c(-c3ccc(C#N)c(F)c3)nc(N3CCC(N)CC3)n(C)c2=O)cc1F  treatment-related adverse event incidence (refers to: Nausea; neuroendocrine neoplasm patients; oral, 60 mg, any grade, dose expansion): 19%
O=S(=O)(Nc1ccccc1)c1ccc(NC(=S)Nc2ccccc2)cc1  blood chemistry level (refers to: TRIG; male mouse, blood; oral, 80 mg/kg daily, 14 days): 174 mg/dL
[11CH3]Oc1ccc(NC(=O)c2cc([N+](=O)[O-])ccc2Cl)cc1  intact radiotracer (heparinized rat blood; 30 min): 30%
CC1(C)C(C=C(Cl)Cl)C1C(=O)OC(C#N)c1ccc(F)c(Oc2ccccc2)c1 (stereo not shown)  enzyme contribution to clearance (refers to: CYP3A4; human, age 1 year, recombinant human CYP3A4; 0.1 µM): 0.91%
C[C@@H](NC(=O)N1C(=O)[C@H](Cc2ccnc(N)c2)[C@H]1C(=O)O)C1CCCCC1  urine leukocyte-positive (healthy Chinese adults; continuous intravenous infusion, 1.5 mg/kg/h, 5.0 days): 0%
CC(=O)c1c(C)c2cnc(Nc3ccc(C4CCN(CCS(C)(=O)=O)CC4)cn3)nc2n(C2CCCC2)c1=O  Vd (human, plasma; oral, 75 mg twice daily, day 21, multiple doses, together with: fulvestrant): 229 L
CC/C(=C(\c1ccccc1)c1ccc(OCCN(C)C)cc1)c1ccccc1  half-life (CD-1 mouse, male, plasma; intraperitoneal, 1 mg/kg): 18.7 h
CCN1CCN(Cc2ccc(Nc3ncc(F)c(-c4cc(F)c5nc6n(c5c4)[C@H](C)CCC6)n3)nc2)CC1  Dizziness incidence, any grade (advanced solid tumour patients; dose not given, Phase Ia monotherapy): 33.3%
O=C(Nc1ccccc1)C1CCN(C(=O)Oc2cccnc2)CC1  adverse event Somnolence (healthy women; oral, 60 mg, 7 days): 7.1%
CO[C@H]1C[C@@H]2CC[C@@H](C)[C@@](O)(O2)C(=O)C(=O)N2CCCC[C@H]2C(=O)O[C@H]([C@H](C)C[C@@H]2CC[C@@H](OC(=O)NCCOCCOCCOCCOCCOCCOCCOCCOCCC(=O)N3CCc4cc(Cn5nc(-c6ccc7oc(N)nc7c6)c6c(N)ncnc65)ccc4C3)[C@H](OC)C2)C[C@@H](O)[C@H](C)/C=C(\C)[C@@H](O)[C@@H](OC)C(=O)[C@H](C)C[C@H](C)/C=C/C=C/C=C/1C  AE leading to discontinuation (patients with advanced solid tumours; intravenous, 6 mg weekly, grade 3 or higher): 8.3%
NCCCC[C@@H]1NC(=O)[C@@H](Cc2c[nH]c3ccccc23)NC(=O)[C@H](c2ccccc2)NC(=O)[C@@H]2C[C@@H](OC(=O)NCCN)CN2C(=O)[C@H](Cc2ccccc2)NC(=O)[C@H](Cc2ccc(OCc3ccccc3)cc2)NC1=O  subjects with injection-site swelling (healthy human volunteers; 1950 µg twice daily): 7%
Clc1ccc(-c2ccccc2)cc1  potassium (Sprague-Dawley rats, female, serum; inhalation, 23 µg/rat, 1 h after exposure): 8 ± 2 mmol/L
CCCCCCCC(=O)N[C@@H](CCCCN)C(=O)N[C@@H](CCCCN)C(=O)N[C@@H](C)C(=O)N[C@@H](CC(C)C)C(=O)N[C@@H](CCCCN)C(=O)N[C@@H](CC(C)C)C(=O)N[C@@H](C)C(=O)N[C@@H](CCCCN)C(=O)N[C@@H](CCCCN)C(=O)N1CCC[C@H]1C(=O)N[C@@H](CC(C)C)C(=O)N[C@@H](CCCCN)C(=O)N[C@@H](CC(C)C)C(=O)N[C@@H](CC(C)C)C(=O)N[C@@H](CCCCN)C(N)=O  AUC(0-inf) (female ICR CD-1 mice, whole blood; intravenous bolus, 1 mg/kg): 78 ± 14 ng·h/mL
N#C[C@H](O[C@@H]1O[C@H](CO)[C@@H](O)[C@H](O)[C@H]1O)c1ccccc1  Tmax (Sprague Dawley rat, plasma; oral, 3.34 g lyophilized powder/kg, low dose): 0.82 ± 0.68 h
CN1CC[C@@H](c2c(O)cc(O)c3c(=O)cc(-c4ccc(C(F)(F)F)cc4Cl)oc23)[C@@H]1CO  patients with adverse event (refers to: rectal abscess; B-cell malignancies; oral, 100 mg, grade 3 to 4, intermittent dosing): 0%
CC(C)[C@@H]1NC(=O)CNC(=O)[C@H](CC(N)=O)NC(=O)[C@H](CCCNC(=N)N)NC(=O)[C@H](Cc2ccc(O)cc2)NC(=O)[C@H](C(C)C)NC(=O)[C@@H](NC(=O)[C@@H](NC(=O)[C@H](CC(N)=O)NC(=O)[C@H](Cc2c[nH]c3ccccc23)NC(=O)[C@H](C)NC(=O)[C@H](Cc2ccccc2)NC(=O)CN)C(C)C)CSSC[C@@H](C(=O)N[C@@H](Cc2cnc[nH]2)C(=O)N[C@@H](CCCNC(=N)N)C(=O)N[C@@H](CCCNC(=N)N)C(=O)N[C@@H](C)C(=O)N[C@@H](CC(N)=O)C(N)=O)NC(=O)[C@H](C(C)C)NC(=O)[C@H](CCCNC(=N)N)NC1=O  globulin (ICR mice, serum; intraperitoneal, 5 mg/kg, day 5): 19.2 ± 0.1 g/L
Cc1cccc(Cn2nc(C3CC3)c3c(NC(=O)c4cnc5cc(OCCN6CCN(C)CC6)ccn45)cccc32)n1  all-cause adverse events (CTCAE v4.03, refers to: maculopapular rash; patients with advanced solid tumours; oral, all dose levels, together with: pembrolizumab 2 mg/kg IV every 3 weeks): 21.1%
O[C@H]1CCCN[C@@H]1CCCn1cnc2c(Cl)c(Cl)ccc21  Cmax geometric LS mean (healthy CYP2D6 intermediate metabolizers, plasma; oral, 150 mg): 328 ng/mL
CC(C)[C@H](O)C(=O)N[C@H]1Cc2ccc3c(c2)[C@]2(C4=C(c5nc(CO)co5)N=C(O4)[C@H](C(C)(C)C)NC1=O)c1cc(F)ccc1N[C@@H]2O3  Cmax (NSG mice, plasma; intravenous, 10 mg/kg, single dose at MTD, together with: paclitaxel 40 mg/kg): 1580 ng/mL
C=CC(=O)N1CC[C@H](n2nc(C#Cc3cc(OC)cc(OC)c3)c3c(N)ncnc32)C1  serum phosphate, median (human patients, serum; oral, dose not given, QD, before phosphate binder start, together with: phosphate binder for ≥2 cycles): 5.2 mg/dL
O=C1Nc2cc3[nH]nc(-c4ccncc4)c3cc2CN1Cc1ccccc1  patients with dizziness (CTCAE v4.03; advanced solid tumour patients; intravenous, 0.45 mg/kg, schedules 1/2): 100%
O=C(c1ccc(F)c(F)c1Nc1ccc(I)cc1F)N1CC(O)([C@@H]2CCCCN2)C1  AE causing dose modification (human patients; oral, dose not given, dose escalation, tablet): 22%

For quick reference, copied from above:
CC(=O)c1c(C)c2cnc(Nc3ccc(C4CCN(CCS(C)(=O)=O)CC4)cn3)nc2n(C2CCCC2)c1=O  Vd (human, plasma; oral, 75 mg twice daily, day 21, multiple doses, together with: fulvestrant): 229 L
CCc1ccc(CC/C=C/c2ccc3c(c2)C(=O)CC3)cc1  Reticulocyte percentage (Sprague-Dawley rat, male; oral, 120 mg/kg/day, 14 days): 5.94%
